Assay results gathered from unrelated publications.
Each numbered part is a random draw from the data of one study; scales do not carry over between parts.
UniProt Q96RG2, sequence (whole entry, looked up): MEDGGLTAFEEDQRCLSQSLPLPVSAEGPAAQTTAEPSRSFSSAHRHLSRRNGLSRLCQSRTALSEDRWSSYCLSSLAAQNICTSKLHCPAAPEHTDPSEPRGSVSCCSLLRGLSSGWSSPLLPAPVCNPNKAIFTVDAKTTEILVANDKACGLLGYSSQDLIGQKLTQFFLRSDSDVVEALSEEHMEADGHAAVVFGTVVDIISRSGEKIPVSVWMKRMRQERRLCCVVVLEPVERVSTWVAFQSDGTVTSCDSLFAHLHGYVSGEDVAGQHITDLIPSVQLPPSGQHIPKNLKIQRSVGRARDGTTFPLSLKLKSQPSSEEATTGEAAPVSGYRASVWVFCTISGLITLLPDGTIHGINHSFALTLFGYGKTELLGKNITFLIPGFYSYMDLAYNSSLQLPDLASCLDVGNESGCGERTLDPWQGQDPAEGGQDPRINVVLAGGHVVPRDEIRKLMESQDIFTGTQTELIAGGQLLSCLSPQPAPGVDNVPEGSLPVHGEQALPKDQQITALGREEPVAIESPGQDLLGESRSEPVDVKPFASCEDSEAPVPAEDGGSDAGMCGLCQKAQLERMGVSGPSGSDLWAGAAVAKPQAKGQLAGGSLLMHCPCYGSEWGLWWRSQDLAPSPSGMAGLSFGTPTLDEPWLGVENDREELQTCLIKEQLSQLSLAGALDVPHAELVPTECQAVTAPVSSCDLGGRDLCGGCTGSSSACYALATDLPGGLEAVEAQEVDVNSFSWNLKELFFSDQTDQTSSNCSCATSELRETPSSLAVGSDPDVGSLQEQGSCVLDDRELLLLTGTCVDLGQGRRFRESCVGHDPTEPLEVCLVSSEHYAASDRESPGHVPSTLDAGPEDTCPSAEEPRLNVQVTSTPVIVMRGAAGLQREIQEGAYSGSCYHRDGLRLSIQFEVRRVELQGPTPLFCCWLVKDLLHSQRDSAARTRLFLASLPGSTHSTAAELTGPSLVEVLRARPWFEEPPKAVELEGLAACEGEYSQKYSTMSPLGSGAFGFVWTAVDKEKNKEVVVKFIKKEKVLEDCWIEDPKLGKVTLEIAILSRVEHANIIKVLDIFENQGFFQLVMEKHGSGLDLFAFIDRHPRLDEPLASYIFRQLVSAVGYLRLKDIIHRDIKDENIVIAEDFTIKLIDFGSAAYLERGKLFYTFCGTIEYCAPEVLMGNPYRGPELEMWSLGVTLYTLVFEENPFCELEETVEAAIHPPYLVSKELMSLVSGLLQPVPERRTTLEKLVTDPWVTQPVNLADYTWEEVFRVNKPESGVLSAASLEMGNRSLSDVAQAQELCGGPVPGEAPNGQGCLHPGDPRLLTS
UniProt Q86Z02, sequence (whole entry, looked up): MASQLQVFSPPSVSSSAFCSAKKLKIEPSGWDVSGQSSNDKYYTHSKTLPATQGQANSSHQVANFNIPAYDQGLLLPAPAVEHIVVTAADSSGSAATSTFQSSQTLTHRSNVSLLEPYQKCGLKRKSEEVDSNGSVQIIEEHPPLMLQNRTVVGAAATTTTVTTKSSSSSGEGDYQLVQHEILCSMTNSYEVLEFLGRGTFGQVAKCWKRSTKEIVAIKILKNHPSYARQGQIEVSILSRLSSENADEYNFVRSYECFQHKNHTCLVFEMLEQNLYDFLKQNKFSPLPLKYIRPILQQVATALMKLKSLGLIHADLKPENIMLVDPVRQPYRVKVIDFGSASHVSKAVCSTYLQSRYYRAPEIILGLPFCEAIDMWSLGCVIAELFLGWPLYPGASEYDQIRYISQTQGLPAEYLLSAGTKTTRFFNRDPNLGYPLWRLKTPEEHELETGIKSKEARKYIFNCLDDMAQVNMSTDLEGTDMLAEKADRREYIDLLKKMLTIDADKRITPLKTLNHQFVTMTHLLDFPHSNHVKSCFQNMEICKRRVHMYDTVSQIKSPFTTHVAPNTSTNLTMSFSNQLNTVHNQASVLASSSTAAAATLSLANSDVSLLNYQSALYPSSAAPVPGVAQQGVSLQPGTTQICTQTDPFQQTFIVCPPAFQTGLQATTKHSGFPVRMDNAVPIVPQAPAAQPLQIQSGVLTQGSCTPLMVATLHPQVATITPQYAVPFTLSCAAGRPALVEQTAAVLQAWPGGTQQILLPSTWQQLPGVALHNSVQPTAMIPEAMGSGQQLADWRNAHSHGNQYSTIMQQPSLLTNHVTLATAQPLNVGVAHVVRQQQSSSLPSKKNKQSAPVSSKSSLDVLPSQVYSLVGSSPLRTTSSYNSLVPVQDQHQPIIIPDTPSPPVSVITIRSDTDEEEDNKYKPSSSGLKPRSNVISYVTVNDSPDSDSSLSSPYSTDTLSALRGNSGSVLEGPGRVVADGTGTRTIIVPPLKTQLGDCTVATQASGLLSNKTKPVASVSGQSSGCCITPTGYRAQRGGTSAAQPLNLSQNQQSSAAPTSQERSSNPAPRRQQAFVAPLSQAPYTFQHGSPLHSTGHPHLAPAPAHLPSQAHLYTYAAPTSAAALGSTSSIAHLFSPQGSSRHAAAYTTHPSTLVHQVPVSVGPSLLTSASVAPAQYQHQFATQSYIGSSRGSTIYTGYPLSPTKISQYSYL
UniProt P35916, sequence (whole entry, looked up): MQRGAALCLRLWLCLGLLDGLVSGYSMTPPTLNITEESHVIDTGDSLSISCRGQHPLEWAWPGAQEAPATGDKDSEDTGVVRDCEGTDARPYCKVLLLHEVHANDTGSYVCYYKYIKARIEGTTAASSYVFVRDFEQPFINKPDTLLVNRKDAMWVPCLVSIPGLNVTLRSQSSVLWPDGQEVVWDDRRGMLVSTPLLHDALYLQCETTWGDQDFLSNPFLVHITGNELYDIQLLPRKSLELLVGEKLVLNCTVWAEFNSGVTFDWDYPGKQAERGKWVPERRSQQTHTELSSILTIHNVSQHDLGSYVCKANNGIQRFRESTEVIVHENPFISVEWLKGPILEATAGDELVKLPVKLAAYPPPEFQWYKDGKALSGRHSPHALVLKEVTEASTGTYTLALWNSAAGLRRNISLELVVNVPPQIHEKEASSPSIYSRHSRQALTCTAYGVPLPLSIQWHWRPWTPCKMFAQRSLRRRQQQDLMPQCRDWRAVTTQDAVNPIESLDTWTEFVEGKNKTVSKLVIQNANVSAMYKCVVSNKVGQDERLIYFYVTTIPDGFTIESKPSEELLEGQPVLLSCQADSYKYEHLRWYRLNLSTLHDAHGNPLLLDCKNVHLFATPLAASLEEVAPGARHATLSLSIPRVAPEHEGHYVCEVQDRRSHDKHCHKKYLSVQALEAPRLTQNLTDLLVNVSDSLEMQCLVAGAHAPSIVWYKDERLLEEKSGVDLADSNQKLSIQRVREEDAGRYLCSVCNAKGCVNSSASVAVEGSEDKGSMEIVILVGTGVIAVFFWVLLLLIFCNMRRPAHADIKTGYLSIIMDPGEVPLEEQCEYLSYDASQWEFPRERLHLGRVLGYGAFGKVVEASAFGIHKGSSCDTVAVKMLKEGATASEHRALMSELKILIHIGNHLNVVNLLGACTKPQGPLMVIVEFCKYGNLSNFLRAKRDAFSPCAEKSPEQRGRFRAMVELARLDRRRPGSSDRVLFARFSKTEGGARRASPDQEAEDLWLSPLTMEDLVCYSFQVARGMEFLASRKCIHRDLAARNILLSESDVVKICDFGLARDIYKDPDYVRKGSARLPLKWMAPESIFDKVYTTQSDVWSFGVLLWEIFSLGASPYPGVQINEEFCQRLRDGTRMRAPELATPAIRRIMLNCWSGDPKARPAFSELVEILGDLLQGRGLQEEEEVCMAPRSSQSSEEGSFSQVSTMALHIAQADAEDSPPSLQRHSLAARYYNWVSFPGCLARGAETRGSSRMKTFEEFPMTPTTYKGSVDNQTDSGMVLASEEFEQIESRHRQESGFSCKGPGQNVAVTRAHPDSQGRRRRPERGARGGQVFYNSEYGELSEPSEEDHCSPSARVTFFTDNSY
UniProt Q15569, sequence (whole entry, looked up): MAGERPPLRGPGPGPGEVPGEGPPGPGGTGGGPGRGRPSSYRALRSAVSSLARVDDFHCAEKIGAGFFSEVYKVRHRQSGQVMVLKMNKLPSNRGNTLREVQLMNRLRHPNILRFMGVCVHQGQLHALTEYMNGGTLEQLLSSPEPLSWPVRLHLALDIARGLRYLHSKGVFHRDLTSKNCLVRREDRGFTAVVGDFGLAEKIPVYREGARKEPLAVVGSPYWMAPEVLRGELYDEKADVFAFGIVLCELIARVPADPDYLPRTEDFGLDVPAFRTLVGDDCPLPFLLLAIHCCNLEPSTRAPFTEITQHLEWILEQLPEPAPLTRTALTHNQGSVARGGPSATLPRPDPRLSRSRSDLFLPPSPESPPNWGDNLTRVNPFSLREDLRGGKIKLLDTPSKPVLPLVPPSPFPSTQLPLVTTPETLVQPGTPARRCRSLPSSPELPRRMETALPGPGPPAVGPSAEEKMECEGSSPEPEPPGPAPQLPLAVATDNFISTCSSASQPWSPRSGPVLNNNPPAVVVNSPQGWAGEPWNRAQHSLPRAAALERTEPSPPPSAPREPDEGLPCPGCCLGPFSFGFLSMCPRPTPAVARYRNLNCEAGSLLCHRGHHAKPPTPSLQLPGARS

Series 1 — observed: enzyme activity; action: inhibitor; concentration: 10 µM
Target: Calcium/calmodulin-dependent protein kinase type II subunit alpha (CAMK2A, Homo sapiens, UniProt Q9UQM7)
UniProt Q9UQM7, sequence (whole entry, looked up): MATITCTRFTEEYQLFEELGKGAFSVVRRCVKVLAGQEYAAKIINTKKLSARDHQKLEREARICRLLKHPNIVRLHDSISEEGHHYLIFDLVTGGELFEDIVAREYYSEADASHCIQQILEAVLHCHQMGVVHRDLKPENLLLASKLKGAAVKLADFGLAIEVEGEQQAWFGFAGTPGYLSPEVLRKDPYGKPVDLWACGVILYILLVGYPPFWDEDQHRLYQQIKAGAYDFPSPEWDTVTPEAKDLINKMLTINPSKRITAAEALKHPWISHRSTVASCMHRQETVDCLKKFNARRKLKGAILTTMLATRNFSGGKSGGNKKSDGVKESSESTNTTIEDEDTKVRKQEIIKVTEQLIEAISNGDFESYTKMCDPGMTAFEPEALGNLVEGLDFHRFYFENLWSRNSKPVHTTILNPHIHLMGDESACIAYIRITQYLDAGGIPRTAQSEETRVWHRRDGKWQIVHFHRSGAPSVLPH
| Structure (SMILES) | inhibition |
| --- | --- |
| CC(=O)OCC(CCn1cnc2cnc(N)nc21)COC(C)=O | -10% |
| COC(=O)CCc1ccc(OCC(O)CNC(C)C)cc1 (centres unmarked) | 0% |
| Nc1nc2ncc([C@H](O)[C@H](O)CO)nc2c(=O)[nH]1 | -14% |
| COc1cc(OC)c(C(=O)O)cc1OC | 9% |
| C[C@@H](CO)[C@@H]1CC[C@@]2(CC[C@]3(C)[C@H](CC[C@@H]4[C@@]5(C)CC[C@H](O[C@@H]6O[C@H](CO)[C@@H](O)[C@H](O)[C@H]6O[C@@H]6O[C@H](CO)[C@@H](O)[C@H](O)[C@H]6O)[C@@](C)(CO[C@@H]6O[C@H](CO)[C@@H](O)[C@H](O)[C@H]6O)[C@@H]5CC[C@]43C)[C@H]2O)CO1 | 21% |
| O=C1OC(OC(=O)c2cccnc2Nc2cccc(C(F)(F)F)c2)c2ccccc21 (centres unmarked) | -3% |
| CC1=C(/C=C/C(C)=C\C=C\C(C)=C\C(=O)O)C(C)(C)CCC1 | -16% |
| CCCCCCCCCCCCC(=O)O | 34% |
| C[C@H]1CC[C@@]2(OC1)O[C@H]1C[C@H]3[C@@H]4CC[C@@H]5C[C@@H](O[C@@H]6O[C@H](CO)[C@H](O)[C@H](O)[C@H]6O[C@@H]6O[C@H](CO)[C@@H](O)[C@H](O)[C@H]6O)CC[C@]5(C)[C@H]4CC[C@]3(C)[C@H]1[C@@H]2C | -2% |
| O=c1c(-c2ccccc2)coc2ccccc12 | 18% |

Series 2 — observed: cell-free assay; technique: competition with immobilised ligand; concentration: 1 µM
Structure (SMILES): CS(=O)(=O)c1cc(C2(NC(=O)c3cncc4c3cnn4-c3ccc(F)cc3)CC2)ccn1
| target | remaining binding |
| --- | --- |
| G protein-coupled receptor kinase 4 (GRK4, Homo sapiens, UniProt P32298) | 100% |
| SRSF protein kinase 1 (SRPK1, Homo sapiens, UniProt Q96SB4) | 100% |
| Rho-associated protein kinase 2 (ROCK2, Homo sapiens, UniProt O75116) | 75% |
| Serine/threonine-protein kinase PLK4 (PLK4, Homo sapiens, UniProt O00444) | 85% |
| Tyrosine-protein kinase ABL1, phosphorylated (ABL1, Homo sapiens, UniProt P00519, Y253F) | 91% |
| Dual specificity testis-specific protein kinase 1 (TESK1, Homo sapiens, UniProt Q15569) | 62% |
| Epidermal growth factor receptor (EGFR, Homo sapiens, UniProt P00533, del746-750) | 100% |
| Mast/stem cell growth factor receptor Kit, autoinhibited (KIT, Homo sapiens, UniProt P10721) | 100% |
| Dual specificity protein kinase TTK (TTK, Homo sapiens, UniProt P33981) | 90% |
| SRSF protein kinase 3 (SRPK3, Homo sapiens, UniProt Q9UPE1) | 100% |
| Cyclin-dependent kinase 16 (CDK16, Homo sapiens, UniProt Q00536) | 94% |
| Serine/threonine-protein kinase BRSK2 (BRSK2, Homo sapiens, UniProt Q8IWQ3) | 84% |
| Receptor-type tyrosine-protein kinase FLT3 (FLT3, Homo sapiens, UniProt P36888, N841I) | 100% |
| Phosphatidylinositol 4,5-bisphosphate 3-kinase catalytic subunit alpha isoform (PIK3CA, Homo sapiens, UniProt P42336, M1043I) | 93% |
| Epidermal growth factor receptor (EGFR, Homo sapiens, UniProt P00533, G719S) | 100% |
| Receptor-type tyrosine-protein kinase FLT3 (FLT3, Homo sapiens, UniProt P36888, ITD) | 100% |
| Activated CDC42 kinase 1 (TNK2, Homo sapiens, UniProt Q07912) | 100% |
| Aurora kinase B (AURKB, Homo sapiens, UniProt Q96GD4) | 88% |
| Serine/threonine-protein kinase tousled-like 1 (TLK1, Homo sapiens, UniProt Q9UKI8) | 75% |
| Mitogen-activated protein kinase kinase kinase 9 (MAP3K9, Homo sapiens, UniProt P80192) | 100% |
| Mitogen-activated protein kinase kinase kinase 13 (MAP3K13, Homo sapiens, UniProt O43283) | 76% |
| Cyclin-dependent kinase 4, with cyclin D1 (CDK4, Homo sapiens, UniProt P11802) | 100% |
| BMP-2-inducible protein kinase (BMP2K, Homo sapiens, UniProt Q9NSY1) | 89% |
| Cyclin-dependent kinase 8 (CDK8, Homo sapiens, UniProt P49336) | 100% |
| Tyrosine-protein kinase ABL1, non-phosphorylated (ABL1, Homo sapiens, UniProt P00519, F317L) | 100% |

Series 3 — SMILES: CCOc1cc2ncnc(Nc3cccc(Br)c3)c2cc1OCC; observed: enzyme activity; action: inhibitor; concentration: 0.5 µM; reference: control
| target | remaining activity [%] |
| --- | --- |
| Proto-oncogene tyrosine-protein kinase Src (SRC, Homo sapiens, UniProt P12931) | 74.8 |
| PAS domain-containing serine/threonine-protein kinase (PASK, Homo sapiens, UniProt Q96RG2) | 92.3 |
| RAC-alpha serine/threonine-protein kinase (AKT1, Homo sapiens, UniProt P31749) | 112 |
| MAP/microtubule affinity-regulating kinase 3 (MARK3, Homo sapiens, UniProt P27448) | 98.8 |
| Tyrosine-protein kinase Fgr (FGR, Homo sapiens, UniProt P09769) | 61.9 |
| ALK tyrosine kinase receptor (ALK, Homo sapiens, UniProt Q9UM73) | 85.8 |
| Serine/threonine-protein kinase 25 (STK25, Homo sapiens, UniProt O00506) | 90.1 |
| Megakaryocyte-associated tyrosine-protein kinase (MATK, Homo sapiens, UniProt P42679) | 90.5 |
| Serine/threonine-protein kinase Nek11 (NEK11, Homo sapiens, UniProt Q8NG66) | 103 |
| Serine/threonine-protein kinase NLK (NLK, Homo sapiens, UniProt Q9UBE8) | 95.9 |
| Insulin receptor (INSR, Homo sapiens, UniProt P06213) | 98.7 |
| Homeodomain-interacting protein kinase 1 (HIPK1, Homo sapiens, UniProt Q86Z02) | 104 |
| Serine/threonine-protein kinase N1 (PKN1, Homo sapiens, UniProt Q16512) | 100 |
| Serine/threonine-protein kinase TAO3 (TAOK3, Homo sapiens, UniProt Q9H2K8) | 96.2 |
| Cyclin-dependent kinase 3, with cyclin E (CDK3, Homo sapiens, UniProt Q00526) | 95.2 |
| cAMP-dependent protein kinase catalytic subunit PRKX (PRKX, Homo sapiens, UniProt P51817) | 99.8 |
| Tyrosine-protein kinase Fyn (FYN, Homo sapiens, UniProt P06241) | 78.9 |
| Tyrosine-protein kinase Fer (FER, Homo sapiens, UniProt P16591) | 90.7 |
| Vascular endothelial growth factor receptor 3 (FLT4, Homo sapiens, UniProt P35916) | 88.1 |
| Tyrosine-protein kinase ITK/TSK (ITK, Homo sapiens, UniProt Q08881) | 104 |
| LIM domain kinase 1 (LIMK1, Homo sapiens, UniProt P53667) | 101 |
| Serine/threonine-protein kinase MRCK alpha (CDC42BPA, Homo sapiens, UniProt Q5VT25) | 85.4 |

Series 4 — species: mouse; medium: microsomes or S9; concentration: 2 µM; time: 0.5 h
| Compound | remaining compound [%] |
| --- | --- |
| O=C(COc1ccccc1-c1nnc[nH]1)N1CCc2ccccc21 | 2.82 |
| CCC(C)NC(=O)c1ccc2c(=O)n(C(C)C)c3nn(CC(=O)Nc4ccc(C(C)C)cc4)c(=O)n3c2c1 (centres unmarked) | 56.9 |
| Cc1nc(-c2ccccc2C)n(CC(O)c2ccccc2)n1 (centres unmarked) | 0.698 |
| Cc1ccccc1-c1nc2ccccc2cc1Cn1nc(-c2cncnc2)c2cnc(N)nc21 | > 99 |
| CCCC(=O)OCCNc1cc(SCC(=O)OCC)c2nonc2c1[N+](=O)[O-] | 0.00269 |
| Cc1ccc(OCCOCCN2CC(C)OC(C)C2)c(Br)c1 (centres unmarked) | 0.143 |
| c1cc(-c2ncnc3sccc23)c2cc[nH]c2n1 | 6.29 |
| CCN(CC)C(=O)Cn1nc(S(C)(=O)=O)nc1-c1ccccc1OC | 87.7 |
| CC(=O)c1c(NCc2ccc(Cl)cc2)n(C)c2ccccc2c1=O | 10.7 |
| O=C(NNc1nc2ccccc2s1)c1ccccc1F | 0.499 |
| O=C(Nc1ccc2c(c1)C(=O)N1CCC[C@H]1C(=O)N2)c1cc(-c2ccc3c(c2)CCO3)n[nH]1 | 84.7 |
| COC(=O)c1sccc1N1C(=O)C/C(=C/c2c[nH]c3ncccc23)C1=O | 0.53 |
| Cc1cc(C)n(CCCN(C)Cc2cn(C(C)C)c3cc(F)ccc23)n1 | 2.76 |
| CC1(C)Cc2ccccc2C(c2sc3nc4c(cc3c2N)CCC4)=N1 | 0.657 |

Repeated from above (series 4):
| Compound | remaining compound [%] |
| --- | --- |
| CCN(CC)C(=O)Cn1nc(S(C)(=O)=O)nc1-c1ccccc1OC | 87.7 |
| Cc1nc(-c2ccccc2C)n(CC(O)c2ccccc2)n1 (centres unmarked) | 0.698 |
| Cc1cc(C)n(CCCN(C)Cc2cn(C(C)C)c3cc(F)ccc23)n1 | 2.76 |
| O=C(Nc1ccc2c(c1)C(=O)N1CCC[C@H]1C(=O)N2)c1cc(-c2ccc3c(c2)CCO3)n[nH]1 | 84.7 |
| COC(=O)c1sccc1N1C(=O)C/C(=C/c2c[nH]c3ncccc23)C1=O | 0.53 |
